Measurements collected from several papers.
Each numbered part is a random draw from the data of one study; scales do not carry over between parts.

Series 1 — observed: enzyme activity; mode: inhibitor; concentration: 0.5 µM; baseline: control
Target: Serine/threonine-protein kinase DCLK2 (DCLK2, Homo sapiens, UniProt Q8N568)
Target sequence (Q8N568 1-766): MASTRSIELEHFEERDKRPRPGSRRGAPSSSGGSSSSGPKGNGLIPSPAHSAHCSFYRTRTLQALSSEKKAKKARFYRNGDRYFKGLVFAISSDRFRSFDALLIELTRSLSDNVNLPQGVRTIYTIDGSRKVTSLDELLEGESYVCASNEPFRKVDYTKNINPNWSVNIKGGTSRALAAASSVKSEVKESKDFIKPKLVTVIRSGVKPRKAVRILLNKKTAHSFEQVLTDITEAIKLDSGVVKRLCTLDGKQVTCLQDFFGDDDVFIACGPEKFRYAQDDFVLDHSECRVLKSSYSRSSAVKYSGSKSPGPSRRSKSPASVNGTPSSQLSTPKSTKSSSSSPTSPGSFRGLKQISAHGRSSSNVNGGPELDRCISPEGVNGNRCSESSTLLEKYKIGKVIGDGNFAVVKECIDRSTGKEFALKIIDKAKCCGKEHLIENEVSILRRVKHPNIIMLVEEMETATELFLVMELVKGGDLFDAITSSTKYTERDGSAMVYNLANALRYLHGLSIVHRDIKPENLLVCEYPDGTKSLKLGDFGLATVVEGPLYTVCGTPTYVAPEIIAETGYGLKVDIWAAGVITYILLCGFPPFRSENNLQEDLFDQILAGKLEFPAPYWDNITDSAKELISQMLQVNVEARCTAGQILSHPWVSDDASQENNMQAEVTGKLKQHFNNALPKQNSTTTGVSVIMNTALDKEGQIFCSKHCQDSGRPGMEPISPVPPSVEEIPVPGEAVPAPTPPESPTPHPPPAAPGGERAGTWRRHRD
SMILES	remaining activity [%]
CCN(CC)CCNC(=O)c1c(C)[nH]c(/C=C2\C(=O)Nc3ccc(F)cc32)c1C	85
Nc1cccc(-c2cc3c(Oc4cccc(O)c4)ncnc3[nH]2)c1	89
O=C(Nc1cccc(Nc2nccc(Nc3cccc(C(F)(F)F)c3)n2)c1)C1CC1	97.4
c1ccc(-c2[nH]ncc2-c2ccnc3ccccc23)nc1	97.4
O=C(NC(NC(=S)Nc1ccc(F)c([N+](=O)[O-])c1)C(Cl)(Cl)Cl)C(c1ccccc1)c1ccccc1 (centres unmarked)	108
COc1cc2ncnc(Nc3cccc(Cl)c3)c2cc1OC	94.7
O=C1c2ccccc2-c2n[nH]c3cccc1c23	88.6
CCN(CC)CCNC(=O)c1c(C)[nH]c(/C=C2\C(=O)Nc3ccc(Cl)cc32)c1C	82.8
CN([C@@H](Cc1ccc(OS(=O)(=O)c2cccc3cnccc23)cc1)C(=O)N1CCN(c2ccccc2)CC1)S(=O)(=O)c1cccc2cnccc12	94.1
Ic1cccc(CSc2nnc(-c3ccncc3)o2)c1	100
COc1cc2ncnc(Nc3ccc(O)c(Br)c3)c2cc1OC	101
O=c1cc(-c2cccc3c2Sc2ccccc2S3)oc(N2CCOCC2)c1	106
Cc1cn(-c2cc(NC(=O)c3ccc(C)c(Nc4nccc(-c5cccnc5)n4)c3)cc(C(F)(F)F)c2)cn1	102
C[C@@H]1CCN(C(=O)CC#N)C[C@@H]1N(C)c1ncnc2[nH]ccc12	96.6
CCOc1nc(NC(=O)Cc2cc(OC)ccc2OC)cc(N)c1C#N	98.1
O=C1C(Cl)=C(N2C(=O)CCC2=O)C(=O)c2ccccc21	100
c1ccc(-c2cnc(Nc3ccc(OCCN4CCCC4)cc3)s2)cc1	87.6
N#Cc1c(NC(=O)c2cccc3ccccc23)sc2c1CCCC2	96.5
CN(C)C[C@H]1CCn2c(c(C3=C(c4cn(C)c5ccccc45)C(=O)NC3=O)c3ccccc32)C1	97.8
Cc1cc2ncc(-c3ccccc3)nc2cc1C	100
N#C/C(=C\c1ccc(O)c(O)c1)C(=O)NCc1ccccc1	101
COc1cc2c(cc1OC)-c1[nH]nc(Nc3cccc(F)c3)c1C2	88.2
Cc1nc2cc3nc(-c4cccs4)cnc3cc2n1C	104
Cn1nc2c3c(cccc31)C(=O)c1ccccc1-2	94.2
CCN(CC)C(=O)c1ccc(Nc2nc(OCC3CCCCC3)c3[nH]cnc3n2)cc1	97.3

Series 2 — observed: enzyme activity; mode: inhibitor; concentration: 1 µM
Structure (SMILES): CO[C@@H]1[C@H](N(C)C(=O)c2ccccc2)C[C@H]2O[C@]1(C)n1c3ccccc3c3c4c(c5c6ccccc6n2c5c31)C(=O)NC4
target	inhibition
Phosphatidylinositol 4,5-bisphosphate 3-kinase catalytic subunit alpha isoform (PIK3CA, Homo sapiens, UniProt P42336, H1047L)	8%
Fibroblast growth factor receptor 1 (FGFR1, Homo sapiens, UniProt P11362)	56%
Tyrosine-protein kinase Srms (SRMS, Homo sapiens, UniProt Q9H3Y6)	27%
Epidermal growth factor receptor (EGFR, Homo sapiens, UniProt P00533, L858R/T790M)	99%
Hepatocyte growth factor receptor (MET, Homo sapiens, UniProt P08581)	61%
Wee1-like protein kinase (WEE1, Homo sapiens, UniProt P30291)	0%
Ephrin type-B receptor 3 (EPHB3, Homo sapiens, UniProt P54753)	0%
Tyrosine-protein kinase Mer (MERTK, Homo sapiens, UniProt Q12866)	88%
Testis-specific serine/threonine-protein kinase 1 (TSSK1B, Homo sapiens, UniProt Q9BXA7)	70%
Serine/threonine-protein kinase Nek11 (NEK11, Homo sapiens, UniProt Q8NG66)	20%
Tyrosine-protein kinase ABL1, non-phosphorylated (ABL1, Homo sapiens, UniProt P00519, F317L)	0%
Serine/threonine-protein kinase TAO3 (TAOK3, Homo sapiens, UniProt Q9H2K8)	40%

Series 3 — observed: cell-free assay; method: competition with immobilised ligand; concentration: 1 µM
SMILES: CCCCN(CCCC)C(=O)CN1C[C@H](c2cc(OC)c3c(c2)OCO3)[C@@H](C(=O)O)[C@@H]1CC(C)(C)CCC
target	remaining binding
Fibroblast growth factor receptor 1 (FGFR1, Homo sapiens, UniProt P11362)	89.4%
Epidermal growth factor receptor (EGFR, Homo sapiens, UniProt P00533, del746-750)	100%
Protein-tyrosine kinase 6 (PTK6, Homo sapiens, UniProt Q13882)	100%
Myosin light chain kinase (MYLK3, Homo sapiens, UniProt Q32MK0)	100%
Mitogen-activated protein kinase kinase kinase 2 (MAP3K2, Homo sapiens, UniProt Q9Y2U5)	81.2%
Cyclin-dependent kinase-like 2 (CDKL2, Homo sapiens, UniProt Q92772)	100%
SNF-related serine/threonine-protein kinase (SNRK, Homo sapiens, UniProt Q9NRH2)	100%

Series 4 — observed: enzyme activity; mode: inhibitor; concentration: 10 µM
Target: Calcium/calmodulin-dependent protein kinase type II subunit alpha (CAMK2A, Homo sapiens, UniProt Q9UQM7)
SMILES	inhibition
O=c1[nH]c(=O)n([C@H]2C[C@H](O)[C@@H](CO)O2)cc1C(F)(F)F	-7%
CC1=CC(=O)CC(C)(C)[C@@]1(O)/C=C/C(C)=C\C(=O)O	-41%
COc1cc(O)c2c(=O)c(O)c(-c3ccc(O)cc3)oc2c1	1%
CC(C)=CCC/C(C)=C/COc1c2ccoc2cc2oc(=O)ccc12	-20%
CCCCCCCCCC[C@H](C(=O)O)[C@]1(C(=O)O)CCC(=O)O1	13%
C[C@@H]1N=C(N)NC(N(C)C)=N1	-7%
COc1cc2c(cc1OC)-c1cc3ccc4c(c3c[n+]1CC2)OCO4	-10%
COc1ccc2cc1Oc1ccc(cc1)C[C@H]1c3c(cc4c(c3Oc3cc5c(cc3OC)CCN(C)[C@@H]5C2)OCO4)CCN1C	-7%
Nc1ccc(C(=O)O)cc1	-1%
Cc1cc(O)c2c(c1)C(=O)c1cc(O)cc(O)c1C2=O	11%
C[C@]1(COc2ccc(N3CCC(Oc4ccc(OC(F)(F)F)cc4)CC3)cc2)Cn2cc([N+](=O)[O-])nc2O1	-5%
Nc1nc(O)c2ncn(COC(CO)CO)c2n1	-6%

A few entries again (series 4):
SMILES	inhibition
CC(C)=CCC/C(C)=C/COc1c2ccoc2cc2oc(=O)ccc12	-20%
CCCCCCCCCC[C@H](C(=O)O)[C@]1(C(=O)O)CCC(=O)O1	13%
C[C@@H]1N=C(N)NC(N(C)C)=N1	-7%
COc1cc2c(cc1OC)-c1cc3ccc4c(c3c[n+]1CC2)OCO4	-10%
COc1ccc2cc1Oc1ccc(cc1)C[C@H]1c3c(cc4c(c3Oc3cc5c(cc3OC)CCN(C)[C@@H]5C2)OCO4)CCN1C	-7%
Nc1ccc(C(=O)O)cc1	-1%
Cc1cc(O)c2c(c1)C(=O)c1cc(O)cc(O)c1C2=O	11%
C[C@]1(COc2ccc(N3CCC(Oc4ccc(OC(F)(F)F)cc4)CC3)cc2)Cn2cc([N+](=O)[O-])nc2O1	-5%
Nc1nc(O)c2ncn(COC(CO)CO)c2n1	-6%
